Assay results gathered from unrelated publications.
Protocols differ between the studies behind these lines. ± gives the spread as reported.

For CCCN1C(=O)CCc2cc(NS(=O)(=O)Cc3ccc(C)cc3)ccc21, water loss read “decreased” (Arabidopsis thaliana Col-0, one month old, detached rosette leaves; 50 µM spray, rapid dehydration; relative to: DMSO).
For COC(=O)[C@H](CC(C)C)NC(=O)[C@@H]1C[C@@H]2CN1C(=O)[C@H]([C@@H](C)OP(=O)(O)O)NC(=O)[C@H](CO)NC(=O)[C@@H](NC(=O)c1cccc(C(F)(F)F)c1)CCC(=O)NCCO2, “yolk extension area decrease” read 31% (zebrafish embryo; microinjection, 24.5 ng, 24 hpf; relative to: control).
The oedema reduction of FC(F)(F)Oc1ccc(/N=c2\oc3ccccc3cc2-c2ccccc2)cc1 is reported as 47.6 ± 3.1% (rat, formalin paw oedema; intraperitoneal, 20 mg/kg, 2 h).
With C[C@@H](O)[C@@H]1NC(=O)[C@H](CCCCN)NC(=O)[C@@H](Cc2ccc(NC(N)=O)cc2)NC(=O)[C@H](Cc2ccc(NC(=O)[C@@H]3CC(=O)NC(=O)N3)cc2)NC(=O)[C@H](NC(=O)[C@H](Cc2ccc(Cl)cc2)NC(=O)CN2CCN(CC(=O)O)CCN(CC(=O)O)CCN(CC(=O)O)CC2)CSSC[C@@H](C(=O)N[C@H](Cc2ccc(O)cc2)C(N)=O)NC1=O [gallium-68 labelled] the SUVpeak was 12 ± 19 (PET/CT; neuroendocrine tumour patients, lymph node lesions; 60 min).
For C=C(c1ncc(C(=O)O)cn1)c1cc2c(cc1C)C(C)(C)CCC2(C)C, “log2 fold change” read 0.048 (RNA sequencing, refers to: Sycp2; rat, brain; dose not given, 24 h; relative to: vehicle).
CCCCCCCCCCCCCCCC(=O)OCC(CSC[C@H](N)C(=O)N[C@@H](CO)C(=O)N[C@@H](CCCCN)C(=O)N[C@@H](CCCCN)C(=O)N[C@@H](CCCCN)C(=O)N[C@@H](CCCCN)C(=O)NCCCCCC(=O)N[C@@H](CCCCN)C(=O)N[C@@H](CC(C)C)C(=O)N[C@H](C(=O)N[C@@H](Cc1ccccc1)C(=O)N[C@@H](Cc1ccccc1)C(=O)N[C@@H](Cc1ccc2ccccc2c1)C(=O)O)C(C)C)OC(=O)CCCCCCCCCCCCCCC (stereo partly drawn): “plaque load ratio” 0.57 ± 0.1 (refers to: thioflavin S plaques; APP/PS1 mouse, 13 months; intracortical, 100 µM, 300 nL, 5 d; relative to: injected over adjacent side).
CC[C@H]1[C@@H](O)[C@@H]2[C@H](CC[C@]3(C)[C@@H]([C@H](C)CCOS(=O)(=O)[O-])CC[C@@H]23)[C@@]2(C)CC[C@@H](O)C[C@@H]12.[Na+]: “whole-body fat mass” 39.4 ± 0.6% (EchoMRI; ob/ob NASH mouse model; oral, 10 mg/kg once daily, before treatment, baseline of 8 week study; relative to: body weight).
For CC(=O)Nc1ccc(OC(=O)CCC(=O)[O][Pt-2]23([O]C(=O)CCC(=O)Oc4ccc(NC(C)=O)cc4)([NH2+][C@@H]4CCCC[C@H]4[NH2+]2)[O]C(=O)C(=O)[O]3)cc1, “mature dendritic cells” read 23.2% (BALB/c mouse, 4T1 tumour, spleen; dose not given).
Under “enthalpy of activation”, CC(C)C[C@H](N)C(=O)N1CCC[C@H]1C(=O)NCC(=O)NCC(=O)O is recorded as 24.4 ± 1.43 kcal/mol (diketopiperazine formation, transition state theory; 1-propanol; concentration not given, 70, 80, 90 °C, 0.5% acetic acid).
Under sucrose preference, CC12CC(O)C3CC1(OC1OC(CO)C(O)C(O)C1O)C3(COC(=O)c1ccccc1)C(=O)O2 (stereo not drawn) is recorded as “increased” (rats, chronic stress depression model; oral, 7 mg/kg, 14 days; relative to: depression group).
O=C1CCN(Cc2ccccc2)CC1C(C[N+](=O)[O-])c1ccccc1 (stereo not drawn): “tail flick response” 42.2% (tail immersion test; BALB/c mice; ip, 25 mg/kg, 1.25 h).
CCCCCCCCC/C=C/C=C/C(=O)N[C@H](C(=O)N[C@H]1C[C@@H](O)CCNC(=O)/C=C/[C@H](C)NC1=O)[C@@H](C)O: IL-6 secretion “inhibited” (ELISA; splenocytes, C57BL/6 mouse; dose not given, together with: LPS).
CC(=O)[O-].O.O.O.O.[Co+2].[O-]c1ccc(Br)cc1C=NCCN1CCOCC1 has an inhibition of 55.7% (hydroxyl radical scavenging; 240 µM).
For CC[C@H](C)[C@H](NC(=O)[C@H](CC(N)=O)NC(=O)[C@H](CC(N)=O)NC(=O)[C@H](CCCNC(=N)N)NC(=O)[C@H](CC(N)=O)NC(=O)[C@H](CCCNC(=N)N)NC(=O)[C@H](CCCCN)NC(=O)[C@@H](NC(=O)[C@H](CC(N)=O)NC(=O)[C@H](CCSC)NC(=O)[C@H](CC(C)C)NC(=O)[C@H](Cc1c[nH]c2ccccc12)NC(=O)[C@H](CCC(N)=O)NC(=O)[C@@H](NC(=O)[C@H](Cc1ccccc1)NC(=O)[C@H](CC(=O)O)NC(=O)[C@H](CCC(N)=O)NC(=O)[C@H](C)NC(=O)[C@H](CCCNC(=N)N)NC(=O)[C@H](CCCNC(=N)N)NC(=O)[C@H](CO)NC(=O)[C@H](CC(=O)O)NC(=O)[C@H](CC(C)C)NC(=O)[C@H](Cc1ccc(O)cc1)NC(=O)[C@H](CCCCN)NC(=O)[C@H](CO)NC(=O)[C@H](Cc1ccc(O)cc1)NC(=O)[C@H](CC(=O)O)NC(=O)[C@H](CO)NC(=O)[C@@H](NC(=O)[C@H](Cc1ccccc1)NC(=O)[C@@H](NC(=O)CNC(=O)[C@H](CCC(=O)O)NC(=O)[C@@H](CO)NC(=O)[C@@H](N)Cc1c[nH]cn1)[C@@H](C)O)[C@@H](C)O)C(C)C)[C@@H](C)O)C(=O)N[C@@H](C)C(=O)N[C@@H](CSCC(=O)NCCOCCOCCOCCOCCC(=O)O[C@H]1CC[C@@]2(C)C(=CC[C@H]3[C@@H]4CC[C@H]([C@H](C)CCCC(C)C)[C@@]4(C)CC[C@@H]32)C1)C(N)=O, the adiponectin level was 20 ± 1 µg/mL (diet-induced obese mice, plasma; subcutaneous, 1.9 µmol/kg, 14 days, chronic dosing).
COc1ccc(C2CC(c3ccc(C)cc3)=Nc3ccccc3S2)cc1OC (stereo not drawn) gave a blood glucose of 103 ± 4.13 mg/dL (oral glucose tolerance test; fasted normal rat, blood; oral, 10 mg/kg, 0 min, together with: oral glucose 3 g/kg).
Oc1ccc2nc1CNCCNCCNC2: “log beta MHL” 29 (potentiometric titration; 298 K, I 0.15 M NaCl, together with: Cu2+).
For COc1ccc(C2CC(c3ccc(C)cc3)=Nc3ccccc3S2)cc1 (stereo not drawn), the blood glucose was 191 ± 4.07 mg/dL (Wistar rat, STZ-induced diabetes; oral, 10 mg/kg once daily, day 14).
Under “enthalpy of activation”, C[C@H](N)C(=O)N1CCC[C@H]1C(=O)NCC(=O)NCC(=O)O is recorded as 19.1 ± 0.956 kcal/mol (diketopiperazine formation, transition state theory; 1-propanol; concentration not given, 70, 80, 90 °C, 0.5% acetic acid).
COc1ccc2c(c1OC)C(C(Cl)(Cl)Cl)N1CCc3cc4c(cc3C1=C2)OCO4 (stereo not drawn) gave an HDL cholesterol of 37.8 ± 1.77 mg/dL (rat, STZ-induced diabetic, serum; oral, 12 mg/kg, day 28).
N[C@@H](CC(=O)O)C(=O)N1CCC[C@H]1C(=O)NCC(=O)NCC(=O)O: “ΔS‡ at 298.15 K” -82 ± 1 J/(mol·K) (diketopiperazine formation, transition state theory; 1-propanol; 70, 80, 90 °C, 0.5% acetic acid).
CCC1CC2C(C)=CC3C(=O)CCCC3C=CC(C)=CC2C(=O)O1 (stereo not drawn): “plaque number reduction” 12.8% (thioflavin S staining, refers to: amyloid-beta plaques; 5XFAD mouse (male, 8 months), cortex; oral, 30 mg/kg three times per week, one month; relative to: vehicle).

A few entries again:
N[C@@H](CC(=O)O)C(=O)N1CCC[C@H]1C(=O)NCC(=O)NCC(=O)O: “ΔS‡ at 298.15 K” -82 ± 1 J/(mol·K) (diketopiperazine formation, transition state theory; 1-propanol; 70, 80, 90 °C, 0.5% acetic acid).
For COc1ccc(C2CC(c3ccc(C)cc3)=Nc3ccccc3S2)cc1 (stereo not drawn), the blood glucose was 191 ± 4.07 mg/dL (Wistar rat, STZ-induced diabetes; oral, 10 mg/kg once daily, day 14).
For CC(=O)Nc1ccc(OC(=O)CCC(=O)[O][Pt-2]23([O]C(=O)CCC(=O)Oc4ccc(NC(C)=O)cc4)([NH2+][C@@H]4CCCC[C@H]4[NH2+]2)[O]C(=O)C(=O)[O]3)cc1, “mature dendritic cells” read 23.2% (BALB/c mouse, 4T1 tumour, spleen; dose not given).
